# Results pooled from the literature.
# A part holds a random share of what one study measured.

# Series 1 — method: protein-binding microarray; molecule type: double-stranded DNA, one strand shown; matrix: in vitro; tested at: 2200 nM top; setting: 60-bp whole probe; added: salmon DNA 0.4 mg/ml; baseline: random background probes; direction: higher = stronger binding; constant ends, left off below: GCCTAGCAC … GTCTTGATTCGCTTGACGCTGCTG
# Target: Interferon regulatory factor 7, full length, phosphomimetic (IRF7, Homo sapiens, UniProt Q92985, residues 1-503, S471D/S472D/S475D/S476D/S477D/S483D/S484D/S487D)
# Construct (chain): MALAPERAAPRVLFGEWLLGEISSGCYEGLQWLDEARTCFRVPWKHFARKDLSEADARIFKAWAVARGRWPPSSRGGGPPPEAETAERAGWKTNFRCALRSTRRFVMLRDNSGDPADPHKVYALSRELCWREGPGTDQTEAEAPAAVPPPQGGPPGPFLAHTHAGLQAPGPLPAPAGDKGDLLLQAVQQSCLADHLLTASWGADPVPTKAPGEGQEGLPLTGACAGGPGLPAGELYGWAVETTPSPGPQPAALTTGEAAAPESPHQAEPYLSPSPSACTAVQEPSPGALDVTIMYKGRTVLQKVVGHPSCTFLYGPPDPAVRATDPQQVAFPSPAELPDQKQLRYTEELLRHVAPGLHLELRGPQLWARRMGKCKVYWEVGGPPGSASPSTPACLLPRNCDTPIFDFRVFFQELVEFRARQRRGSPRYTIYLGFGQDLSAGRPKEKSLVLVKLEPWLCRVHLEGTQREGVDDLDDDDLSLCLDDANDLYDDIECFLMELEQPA
Sequence,fitted relative affinity
TCACCGTTTCTTCTAGAACTGTGCTAG,2.11 z-score
GCCGGTATCCTTATCCTGACGTGCTAG,0.97 z-score
TGGACTGTGTGTTTGAGTCTGTGCTAG,0.653 z-score
GACGGTTTCGAGACTGGGGACGTGCTA,2.84 z-score
TTAGATATCGGGTATCGCTTAGTGCTA,0.435 z-score
ACTTTTTTCTGATTGAATCTGTGCTAG,3.36 z-score

# Series 2 — method: aptamer microarray, sandwich; molecule type: DNA with 2'F-ANA; matrix: in vitro; tested at: 200 nM; added: Cy3 exosite-II aptamer, 400 nM; direction: higher = stronger binding; sequence: GGTTGGTGTGGTTGG
# Target: Prothrombin, mature alpha-thrombin (F2, Homo sapiens, UniProt P00734)
# Setting: whole 15-mer aptamer, many near background
Modification,mean fluorescence intensity
2'F-ANA at 1 3 6 8 9 12 13 14,212 a.u.
2'F-ANA at 2 5 7 9 10 11 13 15,44.9 a.u.
2'F-ANA at 1 5 6 8 9 10 14,47.9 a.u.
2'F-ANA at 1 3 4 8 9 12 14 15,252 a.u.
2'F-ANA at 2 3 6 10 11 12 14,240 a.u.

# Series 3 — method: universal PBM; molecule type: double-stranded DNA, one strand shown; matrix: in vitro; tested at: 600 nM; direction: higher = stronger binding
# Target: Sal-like protein 4, full length isoform A (SALL4, Homo sapiens, UniProt Q9UJQ4, residues 1-1053)
# Chain of UniProt Q9UJQ4 (whole entry, looked up): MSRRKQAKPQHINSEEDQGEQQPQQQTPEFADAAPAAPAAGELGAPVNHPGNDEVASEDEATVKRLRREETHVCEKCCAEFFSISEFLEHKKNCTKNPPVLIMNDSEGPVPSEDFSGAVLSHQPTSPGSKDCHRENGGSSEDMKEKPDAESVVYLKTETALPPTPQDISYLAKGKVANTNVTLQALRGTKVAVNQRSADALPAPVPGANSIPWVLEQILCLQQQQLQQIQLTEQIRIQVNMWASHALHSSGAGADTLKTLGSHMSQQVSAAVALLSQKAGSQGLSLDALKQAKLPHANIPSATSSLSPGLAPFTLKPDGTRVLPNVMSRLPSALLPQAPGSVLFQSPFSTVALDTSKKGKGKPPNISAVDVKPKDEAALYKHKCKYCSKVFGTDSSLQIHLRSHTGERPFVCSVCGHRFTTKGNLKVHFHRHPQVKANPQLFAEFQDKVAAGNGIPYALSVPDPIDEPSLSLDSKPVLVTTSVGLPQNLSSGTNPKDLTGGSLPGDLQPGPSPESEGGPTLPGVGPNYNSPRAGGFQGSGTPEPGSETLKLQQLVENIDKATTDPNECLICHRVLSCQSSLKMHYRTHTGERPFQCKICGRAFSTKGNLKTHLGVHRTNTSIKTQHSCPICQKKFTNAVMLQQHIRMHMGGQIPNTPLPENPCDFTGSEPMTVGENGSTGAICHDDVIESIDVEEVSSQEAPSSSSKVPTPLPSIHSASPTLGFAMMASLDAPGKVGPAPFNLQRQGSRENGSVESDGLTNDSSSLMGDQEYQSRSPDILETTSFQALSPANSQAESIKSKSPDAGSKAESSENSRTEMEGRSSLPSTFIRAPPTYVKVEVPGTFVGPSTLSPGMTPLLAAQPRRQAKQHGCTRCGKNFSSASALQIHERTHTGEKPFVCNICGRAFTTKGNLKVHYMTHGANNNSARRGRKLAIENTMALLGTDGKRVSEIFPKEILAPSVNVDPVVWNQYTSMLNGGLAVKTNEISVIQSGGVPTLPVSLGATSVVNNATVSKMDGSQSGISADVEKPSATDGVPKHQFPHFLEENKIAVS
# Setting: 8-mer, flanks averaged, mean of replicates
Sequence,E-score
ACATTTTC,0.212
GTATGAAA,0.285
ACACTGAT,0.0476
AATAGAAC,0.238
AGACGTCC,-0.157
ATTCTGGG,-0.0578

# Mixed results
Molecule,target,assay,test system,setting,scale,endpoint,value
"PhoQ, residues 284 288 289 292 302 303 SNSSNI","PhoP, residues 12 14 15 18 19 HLGGL (Escherichia coli, UniProt P23836)","Sort-seq, item: YFP reporter",E. coli,"PhoQ-PhoP variant library, added: 10 µM Mg2+","baseline: high Mg2+ state, higher = stronger signaling",fold induction,1.39

# A few entries again (series 2):
Modification,mean fluorescence intensity
2'F-ANA at 1 3 4 8 9 12 14 15,252 a.u.
2'F-ANA at 2 3 6 10 11 12 14,240 a.u.
2'F-ANA at 1 3 6 8 9 12 13 14,212 a.u.
